Published values pooled from the literature.
Lines come from different studies, so protocols differ.

| Compound | tested on | test | test system | setting | how to read | measurement | result |
| --- | --- | --- | --- | --- | --- | --- | --- |
| CN(C)C(=O)c1cc2cnc(Nc3ccc(N4CCNCC4)cn3)nc2n1C1CCCC1 | – | item: other hematologic AESIs | human, HR+/HER2− advanced breast cancer | oral, dose not given, grade 4, CTCAE v4.03 | – | patients with adverse event | 0.3% |
| CCCCN(CCCC)CCCNC(=O)c1cc(-c2ccc(Cl)s2)nc2ccccc12 | Vero-E6 | CellTiter-Glo ATP | – | concentration not given, 72 h, retest 8-point duplicates | reference: DMSO 0%, hyamine -100%, more negative, more toxic | cytotoxicity efficacy | -16.1% |
| Cn1cncc1-c1c(F)cncc1NC(=O)c1c(N)nn2cc(F)cnc12 | – | – | human patients | oral, up to 40 mg once daily | – | patients grade ≥3 Platelet count decrease | 0% |
| C[C@]1(O)C[C@@](N)(c2ccc(-c3nc4n(c3-c3ccccc3)COc3ccncc3-4)cc2)C1 | – | – | human, advanced or metastatic solid tumours | dose not given, all patients | – | patients with any TEAE | 94.1% |
| COc1ncnn2ccc(-c3cnc4nc(C)n(Cc5nnc([C@@H](C)F)o5)c4c3)c12 | – | – | human | oral, dose not given, grade 4 | – | patients with hyponatremia | 0% |
| C=CC(=O)Nc1cc(Nc2nccc(Nc3cc(Cl)c(F)cc3C(C)(C)O)n2)c(OC)cc1N1CC[C@@H](N(C)C)C1 | – | – | human | oral, dose not given, phase I clinical | – | patients with adverse event Diarrhoea | 56.9% |
| C[C@@H]1OC(=O)NN=C1c1ccc(-c2ccc(F)cc2)c(C(F)(F)F)c1 | – | phase I trial, item: Fatigue all grades | human patients | dose not given, all dose groups | – | patients with adverse event | 60% |
| Cc1ccc(Nc2ccnc(N3CCCC3C(=O)NCCCc3ccccc3)n2)cc1 (centres unmarked) | Vero-E6 | CellTiter-Glo ATP | – | concentration not given, 72 h, first round 5-point | reference: DMSO 0%, hyamine -100%, more negative, more toxic | cytotoxicity efficacy | 0% |
| Cc1cn([C@H]2O[C@@H](CO[P@@](=O)(N[C@@H](C)C(=O)OC(C)C)Oc3ccccc3)[C@H](O)[C@H]2F)c(=O)[nH]c1=O | – | item: ALT/AST elevated | human | 50 mg | – | patients with TEAE | 0% |
| O=C1Nc2cc3[nH]nc(-c4ccncc4)c3cc2CN1Cc1ccccc1 | – | CTCAE v4.03 | human, relapsed or refractory advanced solid tumours | intravenous, 0.45 mg/kg, pooled schedules | – | patients with nausea | 0% |
| COc1ccc(-c2c(-c3ccc(C#N)c(F)c3)nc(N3CCC(N)CC3)n(C)c2=O)cc1F | – | item: cerebrovascular accident | human patients | oral, dose not given, dose escalation | – | patients with serious TEAE | 2% |

Some of these lines once more:
| Compound | tested on | test | test system | setting | how to read | measurement | result |
| --- | --- | --- | --- | --- | --- | --- | --- |
| Cc1ccc(Nc2ccnc(N3CCCC3C(=O)NCCCc3ccccc3)n2)cc1 (centres unmarked) | Vero-E6 | CellTiter-Glo ATP | – | concentration not given, 72 h, first round 5-point | reference: DMSO 0%, hyamine -100%, more negative, more toxic | cytotoxicity efficacy | 0% |
| Cc1cn([C@H]2O[C@@H](CO[P@@](=O)(N[C@@H](C)C(=O)OC(C)C)Oc3ccccc3)[C@H](O)[C@H]2F)c(=O)[nH]c1=O | – | item: ALT/AST elevated | human | 50 mg | – | patients with TEAE | 0% |
